Assay results pooled from the literature.
Lines come from different studies, so protocols differ. ± marks the error that the study gave.
Slc6a2: Transporter (Slc6a2, Rattus norvegicus, UniProt Q63380)
NR3C1: Glucocorticoid receptor (NR3C1, Homo sapiens, UniProt P04150)

Protein sequences, listed by entry. Tags and fused reporters are not part of them. Residues count along the entry.
UniProt Q63380, 1-617: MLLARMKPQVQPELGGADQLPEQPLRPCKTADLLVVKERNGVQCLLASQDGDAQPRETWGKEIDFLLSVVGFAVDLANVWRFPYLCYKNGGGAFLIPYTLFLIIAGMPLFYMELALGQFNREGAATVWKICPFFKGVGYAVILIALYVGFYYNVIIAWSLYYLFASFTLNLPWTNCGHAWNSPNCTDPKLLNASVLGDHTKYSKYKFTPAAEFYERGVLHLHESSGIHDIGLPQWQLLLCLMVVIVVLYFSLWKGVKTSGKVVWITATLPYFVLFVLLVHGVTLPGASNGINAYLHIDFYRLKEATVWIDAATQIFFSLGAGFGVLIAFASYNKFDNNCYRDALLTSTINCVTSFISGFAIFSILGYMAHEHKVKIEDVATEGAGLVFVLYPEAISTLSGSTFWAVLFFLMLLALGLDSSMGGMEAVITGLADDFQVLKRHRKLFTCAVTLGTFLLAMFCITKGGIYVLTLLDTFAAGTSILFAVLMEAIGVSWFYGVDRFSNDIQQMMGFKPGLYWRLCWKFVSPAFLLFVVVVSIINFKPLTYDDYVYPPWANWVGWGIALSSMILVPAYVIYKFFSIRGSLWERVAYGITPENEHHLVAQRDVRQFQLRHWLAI
UniProt P04150, whole entry: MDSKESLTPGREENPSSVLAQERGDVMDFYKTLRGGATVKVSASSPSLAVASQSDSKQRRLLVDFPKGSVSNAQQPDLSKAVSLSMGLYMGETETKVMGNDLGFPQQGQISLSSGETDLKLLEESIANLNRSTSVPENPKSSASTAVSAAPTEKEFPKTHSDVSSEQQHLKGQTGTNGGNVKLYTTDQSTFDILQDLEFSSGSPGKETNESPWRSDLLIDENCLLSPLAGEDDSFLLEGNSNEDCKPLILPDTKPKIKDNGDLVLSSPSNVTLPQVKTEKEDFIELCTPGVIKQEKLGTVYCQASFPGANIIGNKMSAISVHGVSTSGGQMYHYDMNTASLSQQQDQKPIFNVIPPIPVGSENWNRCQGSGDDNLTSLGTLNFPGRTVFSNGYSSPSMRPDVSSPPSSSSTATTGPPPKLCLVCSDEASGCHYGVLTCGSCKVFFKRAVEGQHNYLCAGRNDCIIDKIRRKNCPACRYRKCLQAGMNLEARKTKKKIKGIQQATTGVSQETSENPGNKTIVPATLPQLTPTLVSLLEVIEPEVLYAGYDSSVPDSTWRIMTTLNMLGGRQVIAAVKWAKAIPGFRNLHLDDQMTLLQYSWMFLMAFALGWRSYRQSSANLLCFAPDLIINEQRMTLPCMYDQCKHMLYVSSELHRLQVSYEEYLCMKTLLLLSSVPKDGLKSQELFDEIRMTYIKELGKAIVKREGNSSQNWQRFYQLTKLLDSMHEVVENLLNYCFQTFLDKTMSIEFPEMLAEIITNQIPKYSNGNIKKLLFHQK
UniProt P09769, whole entry: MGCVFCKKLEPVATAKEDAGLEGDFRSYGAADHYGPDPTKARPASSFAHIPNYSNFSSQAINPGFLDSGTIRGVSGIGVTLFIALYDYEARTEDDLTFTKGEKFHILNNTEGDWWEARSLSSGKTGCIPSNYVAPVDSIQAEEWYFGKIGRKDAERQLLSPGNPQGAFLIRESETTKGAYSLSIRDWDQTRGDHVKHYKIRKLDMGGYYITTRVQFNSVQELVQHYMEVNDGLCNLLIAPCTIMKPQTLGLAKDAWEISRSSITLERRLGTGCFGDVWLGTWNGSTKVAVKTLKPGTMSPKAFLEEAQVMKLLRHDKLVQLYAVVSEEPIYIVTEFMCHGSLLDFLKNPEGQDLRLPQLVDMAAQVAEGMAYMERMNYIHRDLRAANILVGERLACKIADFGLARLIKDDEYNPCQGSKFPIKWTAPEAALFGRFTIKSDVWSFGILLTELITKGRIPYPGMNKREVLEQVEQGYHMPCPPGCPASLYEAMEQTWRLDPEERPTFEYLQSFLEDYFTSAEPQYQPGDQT
UniProt P10636, whole entry, looked up: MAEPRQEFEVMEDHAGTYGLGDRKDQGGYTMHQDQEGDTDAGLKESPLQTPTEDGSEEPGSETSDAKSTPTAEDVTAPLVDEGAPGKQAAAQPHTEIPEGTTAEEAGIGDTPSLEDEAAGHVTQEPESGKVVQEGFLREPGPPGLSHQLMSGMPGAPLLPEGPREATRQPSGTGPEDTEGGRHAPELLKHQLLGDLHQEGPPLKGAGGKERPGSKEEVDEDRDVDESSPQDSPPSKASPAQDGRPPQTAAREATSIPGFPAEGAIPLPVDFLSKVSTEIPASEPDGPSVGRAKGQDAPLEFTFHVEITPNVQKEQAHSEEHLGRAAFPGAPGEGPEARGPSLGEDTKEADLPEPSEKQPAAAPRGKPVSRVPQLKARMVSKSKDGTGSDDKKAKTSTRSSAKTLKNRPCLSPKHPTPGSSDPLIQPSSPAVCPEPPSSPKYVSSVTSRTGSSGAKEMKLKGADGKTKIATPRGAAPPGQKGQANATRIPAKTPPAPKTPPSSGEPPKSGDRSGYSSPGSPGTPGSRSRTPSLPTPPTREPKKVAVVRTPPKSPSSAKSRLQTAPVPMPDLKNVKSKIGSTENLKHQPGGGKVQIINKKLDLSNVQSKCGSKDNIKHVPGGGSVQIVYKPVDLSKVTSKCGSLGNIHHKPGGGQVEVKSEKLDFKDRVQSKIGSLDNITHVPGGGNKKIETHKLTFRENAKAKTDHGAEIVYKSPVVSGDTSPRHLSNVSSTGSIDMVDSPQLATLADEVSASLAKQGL
UniProt Q12809, whole entry: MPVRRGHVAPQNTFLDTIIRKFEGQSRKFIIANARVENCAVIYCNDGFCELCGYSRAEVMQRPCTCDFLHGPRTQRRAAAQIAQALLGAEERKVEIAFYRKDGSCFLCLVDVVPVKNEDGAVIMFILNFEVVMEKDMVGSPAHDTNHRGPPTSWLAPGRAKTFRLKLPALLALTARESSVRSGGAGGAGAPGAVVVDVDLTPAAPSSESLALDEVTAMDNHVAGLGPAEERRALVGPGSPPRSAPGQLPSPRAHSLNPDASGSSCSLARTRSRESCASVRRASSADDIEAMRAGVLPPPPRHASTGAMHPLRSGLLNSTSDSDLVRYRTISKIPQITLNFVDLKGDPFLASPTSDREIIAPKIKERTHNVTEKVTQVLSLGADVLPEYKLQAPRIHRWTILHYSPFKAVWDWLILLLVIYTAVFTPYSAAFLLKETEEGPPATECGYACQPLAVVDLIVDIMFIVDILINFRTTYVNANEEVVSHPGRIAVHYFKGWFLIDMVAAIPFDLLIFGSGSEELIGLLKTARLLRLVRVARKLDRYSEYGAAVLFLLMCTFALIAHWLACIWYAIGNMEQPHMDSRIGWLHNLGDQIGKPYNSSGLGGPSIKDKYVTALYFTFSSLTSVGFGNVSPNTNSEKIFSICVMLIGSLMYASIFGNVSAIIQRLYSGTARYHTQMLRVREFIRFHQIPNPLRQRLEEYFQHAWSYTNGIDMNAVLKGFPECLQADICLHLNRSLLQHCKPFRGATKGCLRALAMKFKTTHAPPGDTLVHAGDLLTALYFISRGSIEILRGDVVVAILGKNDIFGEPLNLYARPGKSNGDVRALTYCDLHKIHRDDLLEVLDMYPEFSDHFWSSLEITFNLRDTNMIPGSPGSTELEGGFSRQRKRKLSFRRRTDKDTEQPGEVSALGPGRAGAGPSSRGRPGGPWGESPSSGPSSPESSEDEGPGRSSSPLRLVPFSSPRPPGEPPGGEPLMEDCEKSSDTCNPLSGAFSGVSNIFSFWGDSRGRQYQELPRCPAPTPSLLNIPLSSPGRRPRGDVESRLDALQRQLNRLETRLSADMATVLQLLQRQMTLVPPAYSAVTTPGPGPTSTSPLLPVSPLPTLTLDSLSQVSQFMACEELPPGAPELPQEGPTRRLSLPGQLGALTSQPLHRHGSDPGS

N=C(N)NCCc1ccc(OCCCF)c(F)c1 [isotope labelled]  heart to blood ratio (Slc6a2; healthy Wistar rat, heart; iv, 10 min, biodistribution): 13.2 ± 1.2
CCc1c(-c2ccccc2)nn2c(=O)cc(-c3cccc(C(=O)O)c3)[nH]c12  plasma level (mouse; 2 mg/kg, 10 h): not detected
N=C(N)NCCc1ccc(OCCCF)c(I)c1  heart to blood ratio (Slc6a2; healthy Wistar rat, heart; iv, 10 min, biodistribution): 5.9 ± 0.4
CC(=O)OC1=CC2=CC[C@H]3[C@H]4CCC(=O)[C@@]4(C)CC(=O)[C@]3(S)[C@]2(C)CC1  EC50 (NR3C1; nuclear translocation, agonist, enzyme fragment complementation): > 9 µM
CCN1CCN(Cc2ccc(NC(=O)c3ccc(C)c(Oc4ncnc5cc(OC)c(OC)cc45)c3)cc2C(F)(F)F)CC1  residual probe binding (Tyrosine-protein kinase Fgr (FGR, Homo sapiens, UniProt P09769); KINOMEscan competition binding; 1.0 µM): 2.3%
CC(C)NC(=O)Nc1ccc2c(c1)C(=O)N([C@H](C)CO)C[C@@H](C)[C@H](CN(C)S(=O)(=O)c1ccc(Cl)cc1)O2  cytotoxicity (ldlA[mSR-BI] cells; CellTiter-Glo; concentration not given, 24 h): not toxic
C[C@H]1CCCN1Cc1cc2cnc(NC(=O)c3ccc4c(cnn4C)c3)cc2[nH]1  colony formation (human CD34+ cord blood cells; 1 and 10 µM, normal progenitor cells): no effect
O=C(Nc1cccnn1)N1CC(Oc2ccc(-c3ccccc3F)cn2)C1  time to steady state (refers to: trough concentration; healthy humans; oral, repeated once-daily dosing): 2 to 3 days
C[C@@]12CC[C@@H]3c4ccc(OP(=O)(O)O)cc4CC[C@@H]3[C@H]1CCC2=O  EC50 (NR3C1; nuclear translocation, agonist, enzyme fragment complementation): > 9 µM
Fc1cc(-c2ccc3c(n2)[nH]c2ccncc23)ccn1 [isotope labelled]  specific binding (Microtubule-associated protein tau, paired helical filaments (MAPT, Homo sapiens, UniProt P10636); radioligand binding; PHF tau brain homogenate; 142.86 nM; higher = more binding): 27.6 a.u.
NC(=O)c1ccc(-n2cccc2Cc2ccccc2O)cc1N[C@H]1CC[C@H](O)CC1  viability (MDA-MB-231; 25 µM, 72 h): > 95%
COc1cc(CC(=O)NCC(NC(=O)C(CCCNC(=O)c2cccc(I)c2)NC(=O)C(Cc2ccc(C(F)(F)P(=O)(O)O)cc2)NC(=O)c2ccc(C)c(Br)c2)C(N)=O)ccc1O (stereo not shown)  Vdss (HPLC-MS/MS; mouse, plasma; intravenous, 5 mg/kg): 0.007 L
C/C(=N\Nc1nc2ccccc2n1C)c1ccccn1  IC50 (Voltage-gated inwardly rectifying potassium channel KCNH2 (KCNH2, Homo sapiens, UniProt Q12809); potassium current, inhibitor, manual patch clamp): 3.78 µM

A few entries again:
CCc1c(-c2ccccc2)nn2c(=O)cc(-c3cccc(C(=O)O)c3)[nH]c12  plasma level (mouse; 2 mg/kg, 10 h): not detected
